Experimental data collected from several papers.
Compare with care: the assays were run in different laboratories. “And” joins repeats or separate records; there may be more than shown. ± gives the spread as reported.
IDE: Insulin-degrading enzyme (IDE, Homo sapiens, UniProt P14735)

SMILES	tested on	test	conditions	how to read	endpoint	result
Cc1ccccc1-c1ccc([C@@H]2[C@@H](CO)N3CCCCN(S(=O)(=O)c4ccccc4C)C[C@@H]23)cc1	IDE	enzyme activity, inhibitor, fluorescence kinetic	together with: Mca-RPPGFSAFK(Dnp)-OH substrate	–	EC50	0.032 µM
CC(NC(=O)c1ccccc1/N=C/c1c(O)ccc2ccccc12)c1ccccc1 (centres unmarked)	HBL-1	–	0.5 µM, 120 h	–	viability	122%
COc1ccccc1NC(=O)N1CCCCN2[C@H](CO)[C@@H](c3ccc(-c4cccc(C)c4)cc3)[C@@H]2C1	IDE	enzyme activity, inhibitor, fluorogenic kinetic	together with: Mca-RPPGFSAFK(Dnp)-OH substrate	–	EC50	7.6 µM
NC(=O)[C@H](CCCN=C(N)CCl)NC(=O)c1ccccc1	HBL-1	–	1 µM, 120 h	–	viability	110%
Nc1cccc2c1CN(C1CCC(=O)NC1=O)C2=O (centres unmarked)	bone marrow CD138+ myeloma cells	XTT	3 µM, mean of three patients	–	viability	4%
O=C(/C=C/c1ccc(O)cc1)c1ccc(O)cc1O	HBL-1	–	1 µM, 120 h	–	viability	100%
Cc1cccc(-c2[nH]c(CNc3ccccc3F)nc2-c2ccc3ncnn3c2)n1	MM1.S	XTT	1.5 µM	baseline: untreated	viability	44%
COc1cc2ncnc(Nc3ccc(Oc4ccccc4)c(C)c3C)c2cc1OC	NCI-H2087 (BRAF L597V)	resazurin	0.3 µM, 72 h, together with: trametinib	baseline: DMSO	viability	95.5%
Nc1cccc2c1C(=O)N(C1CCC(=O)NC1=O)C2=O (centres unmarked)	MM1.S	XTT	1.5 µM	–	viability	16% and 31% and 29%
O=P(O)(O)C(O)(Cn1ccnc1)P(=O)(O)O	MDA-MB-231	AlamarBlue	7.5 µM, 24 h	baseline: control	viability	97 ± 4%
COc1cc2ncnc(Nc3ccc(Oc4ccccc4)cc3C)c2cc1OC	NCI-H2087 (BRAF L597V)	resazurin	1 µM, 72 h, together with: trametinib 0 nM	–	viability	80.3%

A few entries again:
SMILES	tested on	test	conditions	how to read	endpoint	result
COc1cc2ncnc(Nc3ccc(Oc4ccccc4)cc3C)c2cc1OC	NCI-H2087 (BRAF L597V)	resazurin	1 µM, 72 h, together with: trametinib 0 nM	–	viability	80.3%
